Measurements of several laboratories.
Each line is one published result; not all experiments were run side by side. Numbers after ± are the reported error.
Chain of UniProt Q8NB78 (whole entry, looked up): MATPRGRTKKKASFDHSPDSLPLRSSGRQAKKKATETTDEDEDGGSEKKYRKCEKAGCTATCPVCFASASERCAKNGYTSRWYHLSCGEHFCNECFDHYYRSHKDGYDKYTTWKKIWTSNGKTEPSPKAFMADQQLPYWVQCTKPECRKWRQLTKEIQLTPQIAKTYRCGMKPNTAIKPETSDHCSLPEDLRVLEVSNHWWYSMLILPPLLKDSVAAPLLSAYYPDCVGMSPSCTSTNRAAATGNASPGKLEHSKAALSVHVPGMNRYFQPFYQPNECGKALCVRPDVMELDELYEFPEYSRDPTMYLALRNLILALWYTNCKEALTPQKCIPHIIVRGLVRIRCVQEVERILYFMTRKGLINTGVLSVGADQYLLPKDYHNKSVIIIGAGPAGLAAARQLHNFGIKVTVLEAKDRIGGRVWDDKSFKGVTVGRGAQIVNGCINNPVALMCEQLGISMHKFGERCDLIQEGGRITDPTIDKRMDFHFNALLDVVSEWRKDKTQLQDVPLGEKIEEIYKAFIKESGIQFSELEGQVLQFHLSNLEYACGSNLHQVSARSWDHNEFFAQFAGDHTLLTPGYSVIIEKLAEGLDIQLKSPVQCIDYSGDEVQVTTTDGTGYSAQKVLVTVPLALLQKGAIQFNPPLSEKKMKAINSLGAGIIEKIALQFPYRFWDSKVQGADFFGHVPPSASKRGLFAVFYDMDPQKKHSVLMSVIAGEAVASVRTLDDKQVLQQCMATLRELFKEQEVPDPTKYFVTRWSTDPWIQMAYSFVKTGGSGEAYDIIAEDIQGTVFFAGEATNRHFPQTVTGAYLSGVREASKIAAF
Chain of UniProt O75469 (whole entry, looked up): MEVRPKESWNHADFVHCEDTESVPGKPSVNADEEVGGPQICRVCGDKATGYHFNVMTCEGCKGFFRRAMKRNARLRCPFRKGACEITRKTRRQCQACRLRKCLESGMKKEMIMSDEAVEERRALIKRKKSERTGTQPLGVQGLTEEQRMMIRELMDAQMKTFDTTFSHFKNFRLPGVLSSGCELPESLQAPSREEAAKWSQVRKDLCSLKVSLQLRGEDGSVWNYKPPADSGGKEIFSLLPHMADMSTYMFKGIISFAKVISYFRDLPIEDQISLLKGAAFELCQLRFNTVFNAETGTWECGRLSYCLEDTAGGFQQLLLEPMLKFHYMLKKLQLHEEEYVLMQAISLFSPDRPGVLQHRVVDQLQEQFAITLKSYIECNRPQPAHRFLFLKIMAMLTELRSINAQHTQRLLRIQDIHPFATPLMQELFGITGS

| SMILES | tested on | assay | system | conditions | how to read | measurement | result |
| --- | --- | --- | --- | --- | --- | --- | --- |
| NS(=O)(=O)c1ccc(-n2nc(C(F)(F)F)cc2-c2ccc(F)cc2F)cc1 | – | substrate | male beagle dog liver microsomes | 20 µM, pH 7.4, mean of 0-90 and 0-60 min | – | metabolite formation rate | 2.4 pmol/min/mg |
| CC(C)[C@H](NC(=O)[C@@H]1CCCN1C(=O)[C@H](CCCNC(=N)N)NC(=O)[C@H](CS)NC(=O)[C@H](Cc1c[nH]c2ccccc12)NC(=O)[C@H](CCCNC(=N)N)NC(=O)[C@@H](Cc1ccccc1)NC(=O)[C@H](Cc1c[nH]cn1)NC(=O)[C@H](CCC(=O)O)NC(=O)[C@H](CS)NC(=O)[C@H](CS)NC(=O)CNC(=O)[C@@H]1CC(=O)N[C@@H](CCCNC(=N)N)C(=O)NCC(=O)N[C@@H](CC(=O)O)C(=O)N[C@H](Cc2ccc(O)cc2)C(=O)N1)C(N)=O [technetium-99m labelled] | – | – | C57 mouse, female, B16/F1 melanoma | intravenous, 0.037 MBq, 0.5 h | reference: tumour over muscle | tumour to tissue ratio | 9.25 |
| O=C(NCCCN(CCCCN(CCCNC(=O)c1cccc(=O)n1[O-])C(=O)c1cccc(=O)n1[O-])C(=O)c1cccc(=O)n1[O-])c1cccc(=O)n1[O-].[89Zr+4] | – | radio-TLC | PBS | 1 d, pH 7.4, 37 °C, together with: K^+ 10-fold excess | – | intact complex | 98.7 ± 1.9% |
| Cc1ccc(-c2ccc(-c3cc4sccc4o3)cn2)nc1 | – | TCSPC | DMF | – | – | fluorescence lifetime | 1.34 ns |
| CC(C)C[C@H](NC(=O)[C@H](C)NC(=O)[C@H](C)NC(=O)[C@H](CCC(N)=O)NC(=O)[C@H](C)NC(=O)[C@H](CO)NC(=O)[C@H](CC(C)C)NC(=O)[C@H](C)NC(=O)[C@@H](NC(=O)[C@H](C)NC(=O)[C@H](Cc1ccc(O)cc1)NC(=O)[C@H](CO)NC(=O)[C@H](CCCCN)NC(=O)[C@H](C)NC(=O)[C@H](Cc1ccccc1)NC(=O)[C@H](CCCCN)NC(=O)[C@H](C)NC(=O)[C@H](Cc1ccccc1)NC(=O)[C@H](CCCCN)NC(=O)[C@H](CCCCN)NC(=O)[C@H](C)NC(=O)[C@H](Cc1ccccc1)NC(=O)[C@H](CCCCN)NC(=O)[C@H](C)NC(=O)[C@H](Cc1ccccc1)NC(=O)[C@H](CCCCN)NC(=O)[C@H](CCCCN)NC(=O)[C@H](C)NC(=O)[C@H](Cc1ccccc1)NC(=O)[C@H](CCCCN)NC(=O)[C@H](C)NC(=O)[C@H](Cc1ccccc1)NC(=O)[C@@H](N)CCCCN)C(C)C)C(=O)N[C@@H](C)C(=O)N[C@@H](CCCNC(=N)N)C(=O)N[C@@H](CCCNC(=N)N)C(=O)O | – | – | C57BL/6 mouse, male | intravenous, 8 mg/kg | – | clearance | 2.62 ± 0.367 mL/min/kg |
| O=C([O-])CN1CCN(CC(=O)[O-])CCN(CC(=O)NC[C@H]2CC[C@H](C(=O)N[C@H](Cc3cnc4ccccc4c3)C(=O)NCCCC[C@H](NC(=O)N[C@@H](CCC(=O)O)C(=O)O)C(=O)O)CC2)CCN(CC(=O)[O-])CC1.[64Cu+2] | – | PET/CT, OLINDA/EXM dosimetry | healthy human volunteers, gallbladder wall | – | – | absorbed dose | 0.052 mGy/MBq |
| Cc1cc2c(cc1C1(c3ncc(C(=O)O)cn3)CC1)C(C)(C)CCC2(C)C | – | – | rat, Sprague-Dawley, male, serum | oral, 100 mg/kg, 24 h | – | triglycerides | 158 ± 46.5 ng/dL |
| OC1(C(F)(F)F)CCN(c2nc(Nc3ccnc(C(F)(F)F)c3)nc(-c3cccc(C(F)(F)F)n3)n2)C1 (stereo not drawn) | – | – | Sprague-Dawley rat | oral, at least 100 mg/kg, 28 days, once daily | – | food intake | decreased |
| NC12CNCCNCC(NCc3ccc(CNC(=O)CCCC(=O)NCc4ccc(-c5nncnn5)cc4)cc3)(CNCCNC1)CNCCNC2.[64Cu+2] | – | OLINDA dosimetry | breasts | pretargeting, 120-h interval | – | mean absorbed dose | 0.0281 rad/mCi |
| COc1cc2c(cc1OC)CN(CCCCn1ccc3cc(OCC[18F])ccc31)C2 | – | – | male CD-1 mouse, muscle | intravenous, 280 kBq, 15 min | – | tracer uptake | 2.72 %ID/g |
| CC(NC(=O)OC1OC(C(=O)O)C(O)C(O)C1O)c1cc(Cl)ccc1Cn1c(=S)[nH]c(=O)c2[nH]ccc21 (stereo not drawn) | – | equilibrium dialysis | male Han Wistar rats, plasma | 1 µM, 16 h, 37 °C | – | fraction unbound | 18.4 ± 0.93% |
| COC(=O)/C=C/C(=O)c1ccc(OC)cc1 | – | LC-MS/MS | processed rat plasma, autosampler | 40 ng/mL, 12 h, 4 °C, post-preparative | – | recovery | 98 ± 5.12% |
| [64Cu+2].c1ccc(CNCc2ccc(CN3CCCN4CCNCCCN(CC4)CC3)cc2)nc1 | CXCR4 | – | NOD/SCID mouse, U87 and U87-stb-CXCR4 xenografts, blood | iv, 120 min, ex vivo | – | tissue uptake | 1.51 ± 0.24 %ID/g |
| CC12CC(c3ccc(S(C)(=O)=O)cc3)C3=C4CCC(=O)C=C4CCC3C1CCC2(O)C(F)(F)C(F)(F)F (stereo not drawn) | – | – | human, plasma | oral, 4 mg, geometric mean, together with: itraconazole 200 mg/day | – | AUC0-tlast | 2000 ng·h/mL |
| CCCC[C@@H]1NC(=O)[C@@H](NC(=O)[C@H](CCC(=O)O)NC(=O)CNC(=O)CN2CCN(CC(=O)O)CCN(CC(=O)O)CCN(CC(=O)O)CC2)CCCCNC(=O)C[C@@H](C(N)=O)NC(=O)[C@H](C(C)C)NC(=O)[C@@H]2CCCN2C(=O)[C@H](CCCNC(=N)N)NC(=O)CNC(=O)[C@H](Cc2c[nH]c3ccccc23)NC(=O)[C@H](CCCNC(=N)N)NC(=O)[C@@H](Cc2ccccc2)NC(=O)[C@H](Cc2c[nH]cn2)NC(=O)[C@H](CCC(=O)O)NC1=O [gallium-67 labelled] | – | – | C57 mice with B16/F1 melanoma, pancreas | intravenous, 0.037 MBq, 2 h | – | tissue uptake | 0.1 ± 0.08 %ID/g |
| NS(=O)(=O)Nc1ncnc(OCCOc2ncc(Br)cn2)c1-c1ccc(Br)cc1 | – | M6 formation | male Beagle dog, liver microsomes | 50 mg/kg daily for 4 weeks | – | Km | 10 ± 1.7 µM |
| C=C1C(=O)O[C@@H]2C[C@H](C)[C@@H]3C[C@H](OCc4cn(Cc5ccccc5)nn4)[C@H](OCc4cn(Cc5ccccc5)nn4)[C@@]3(C)C[C@H]12 | – | propidium iodide flow cytometry | primary splenocytes, BALB/c mouse | 48 h, 10% fetal calf serum | – | CC50 | 229 ± 4 µg/mL |

| SMILES | tested on | assay | system | conditions | how to read | measurement | result |
| --- | --- | --- | --- | --- | --- | --- | --- |
| CCC(=O)N[C@@H](C)C(=O)OCC(=O)N[C@@H](C)C(=O)O | – | – | water | pH 4, 25 °C | – | depolymerization half-life | 69 days |
| N[C@H](CSC(F)(F)[18F])C(=O)O | C6 tumour model | – | male nude, tumour | intravenous, 3.7 MBq, 45 min, tumour-bearing | – | tracer uptake | 3.81 %ID/g |
| Cc1ccccc1-c1cc(N2CC[N+](C)([O-])CC2)ncc1N(C)C(=O)C(C)(C)c1cc(C(F)(F)F)cc(C(F)(F)F)c1 | – | – | human, plasma | dose not given | – | time to terminal elimination phase | ~48 h |
| COc1cc(NC(C)=O)c2c(c1O)-c1c(OC)c(OC)cc3c1C(C2)N(C)CC3 (stereo not drawn) | – | – | rat liver homogenate | 0.5 µg/mL, 40 d, -20 °C, long-term storage | – | remaining compound | 108 ± 3.8% |
| COc1ccc(CCCN[C@@H]2CCC[C@H]2CN[C@H]2CCC[C@@H]2CNCCCCN[C@H]2CCC[C@@H]2CN)cc1 | KDM1B (Homo sapiens, UniProt Q8NB78) | enzyme activity, inhibitor | – | – | – | Ki | 18 µM |
| CCCCCCCCCCCCCCCC(=O)NCCOCCOCCOCCOCCOCCOCCOCCOCCC(=O)NCCCC[C@H](NC(=O)CNC(=O)[C@@H]1CSSC[C@H](N)C(=O)N[C@@H](Cc2ccc(O)cc2)C(=O)N[C@@H]([C@@H](C)CC)C(=O)N[C@@H](CCC(N)=O)C(=O)N[C@@H](CC(N)=O)C(=O)N1)C(=O)NCC(N)=O | – | – | male Wistar Hannover rat, plasma | intravenous bolus, 0.1 mg/kg | – | steady-state volume of distribution | 0.61 L/kg |
| CCCCCCCC(=O)OC[C@H](NC(=O)[C@H](CO)NC(=O)CN)C(=O)N[C@@H](Cc1ccccc1)C(=O)N[C@@H](CC(C)C)C(=O)N[C@@H](CO)C(=O)N1CCC[C@H]1C(=O)N[C@@H](CCC(=O)O)C(=O)N[C@@H](Cc1cnc[nH]1)C(=O)N[C@@H](CCC(N)=O)C(=O)N[C@@H](CCCNC(=N)N)C(=O)N[C@H](C(=O)N[C@@H](CCC(N)=O)C(=O)N[C@@H](CCC(N)=O)C(=O)N[C@@H](CCCNC(=N)N)C(=O)N[C@@H](CCCCN)C(=O)N[C@@H](CCC(=O)O)C(=O)N[C@@H](CO)C(=O)N[C@@H](CCCCN)C(=O)N[C@@H](CCCCN)C(=O)N1CCC[C@H]1C(=O)N1CCC[C@H]1C(=O)N[C@@H](C)C(=O)N[C@@H](CCCCN)C(=O)N[C@@H](CC(C)C)C(=O)N[C@@H](CCC(N)=O)C(=O)N1CCC[C@H]1C(=O)N[C@@H](CCCNC(=N)N)C(=O)O)C(C)C | – | beat-to-beat plethysmography | human chronic HFrEF patients | intravenous infusion, 0.1 µg/kg/min, after 60 min infusion | – | blood pressure mBP | 71.4 ± 10.2 mm Hg |
| CCCC[C@H](NC(=O)CNC(=O)CNC(=O)CN1CCN(CC(=O)O)CCN(CC(=O)O)CCN(CC(=O)O)CC1)C(=O)N[C@H]1CC(=O)NCCCC[C@@H](C(N)=O)NC(=O)[C@H](Cc2c[nH]c3ccccc23)NC(=O)[C@H](CCCNC(=N)N)NC(=O)[C@@H](Cc2ccccc2)NC(=O)[C@H](Cc2c[nH]cn2)NC1=O [lead-203 labelled] | – | – | normal C57 mice, urine | intravenous, 0.056 MBq, 24 h | – | urinary excretion | 92.1 ± 2.14% |
| CCCC[C@H](NC(=O)CNC(=O)CNC(=O)CN1CCN(CC(=O)O)CCN(CC(=O)O)CC1)C(=O)N[C@H]1CC(=O)NCCCC[C@@H](C(N)=O)NC(=O)[C@H](Cc2c[nH]c3ccccc23)NC(=O)[C@H](CCCNC(=N)N)NC(=O)[C@@H](Cc2ccccc2)NC(=O)[C@H](Cc2c[nH]cn2)NC1=O [copper-64 labelled] | – | – | female C57 mouse, B16/F1 melanoma | intravenous, 0.037 MBq, 4 h | reference: tumour over kidneys | uptake ratio | 3.6 |
| CC(C)c1cnc(-c2cc(Cl)ccc2F)cc1Nc1ccncc1C(=O)NC(CO)CO | – | – | patients, phase I monotherapy | oral, dose not given, grade 5 | – | patients with decreased appetite | 0% |
| COC(=O)c1ccc2c(c1)NC(=O)/C2=C(\Nc1ccc2c(c1)CCN2C(=O)CN1CCOCC1)c1ccccc1 | – | – | Sprague-Dawley rat | intravenous, 2 mg/kg | reference: liver blood flow | blood clearance | ~30% |
| Cc1ncnc2c1c(C1=CCSCC1)cn2[C@@H]1O[C@H](CO)[C@@H](O)[C@H]1O | – | microscopy | primary peritoneal macrophages, Swiss mouse | 5 days | – | CC50 | > 64 µM |
| [64Cu+2].c1cnc(CNCc2ccc(CN3CCCN4CCNCCCN(CC4)CC3)cc2)nc1 | CXCR4 | – | NOD/SCID mouse, U87 and U87-stb-CXCR4 xenografts, spleen | iv, 90 min, no blocking dose, ex vivo | – | tissue uptake | 7.89 ± 0.47 %ID/g |
| CC(C)(Sc1ccncc1-c1ccc(C#N)c2ccccc12)C(=O)OC1OC(C(=O)O)C(O)C(O)C1O (stereo not drawn) | – | – | human, urine | oral, 15 mg, 72 h, moderate renal impairment | – | renal clearance | 80.4 mL/min |
| O=C(Nc1nccs1)C(c1cc(F)ccc1O)N1Cc2ccccc2C1=O (stereo not drawn) | – | – | mouse FVB/NRj, female, plasma | oral, 20 mg/kg | – | AUC(0-4h) | 534 ± 273 ng·h/mL |
| CCC(=O)N(C)c1ccc(Cl)c(Cl)c1 | NR1I2 (Homo sapiens, UniProt O75469) | reporter gene, agonist | – | 100 µM | reference: vehicle | fold activation | 2.28 fold |
